Published values of several laboratories.
Compare with care: the assays were run in different laboratories. Numbers after ± are the reported error.
Cell line: HL-60

With `COc1ccc(C(O)=CC(=O)c2ccc(C(C)(C)C)cc2)cc1.[Ru+2].c1ccc(-c2ccccn2)nc1.c1ccc(-c2ccccn2)nc1` the IC50 was 300 nM (cytotoxicity; dark).
For `CCCON(Cc1ccc(C(=O)NO)cc1)C(=O)Nc1cc(C)cc(C)c1`, the IC50 was 443 nM (cell growth or viability, ATP luminescence; 72 h).
For `Cc1cc(C)nc(SCC(=O)Nc2ncc(Cc3cccc(OCc4cn(-c5ccc(Cl)cc5)nn4)c3)s2)n1`, the inhibition was 4.6 ± 3.6% (cell viability, MTS; 10 µM).
With `COc1cc(-c2cn(C)c(=O)c3cnccc23)cc(OC)c1CN(C)C` the EC50 was 2480 nM (cell growth or viability; 7 days).
The IC50 of `CC(C)c1ccc(N(C)c2ccc3c(c2)OCC[C@H]3CNc2cnccc2C(=O)O)cc1` is reported as 13 nM (cell proliferation; 168 h).
For `COc1ccc(C([O-])=CC(=O)c2ccc(C(C)(C)C)cc2)cc1.[Cl-].[Ru+2].c1ccc(-c2cccc(-c3ccccn3)n2)nc1`, the IC50 was 570 nM (cytotoxicity; dark).
With `COCCn1cc(COc2cccc(Cc3cnc(NC(=O)CSc4nc(C)cc(C)n4)s3)c2)nn1` the inhibition was 9.9 ± 2.8% (cell viability, MTS; 10 µM).
The GI50 of `CCN(C(=O)c1cc(F)ccc1Oc1nncnc1N1CCC2(C1)CN([C@H](CCCN(C)CCOC)C(C)C)C2)C(C)C` is reported as greater than 10000 nM (cell growth or viability; 7 days).
`COC(CC1C(C)=CCC2C1(C)CCC1C(C)(C)C(O)C(O)CC12C)C(N)C(=O)O` (stereo not drawn) gave an IC50 of greater than 10000 nM (cell growth or viability, CCK-8; 72 h).
`COc1cccc2c1cc1c3c(cc4c(c32)OCO4)[C@@H]2c3c4c5c(cc6c(c5c5cccc(OC)c35)OCO6)CCN4[C@@H]2N1C` (racemic) has an inhibition of less than 50% (cytotoxicity, XTT; 50 µg/mL, 48 h).
`CO[C@@H](C[C@H]1C(C)=CC[C@@H]2[C@]3(C)C[C@H](O[C@@H]4O[C@@H](C)[C@H](O)[C@@H](O)[C@H]4O)[C@@H](O)C(C)(C)[C@H]3CC[C@]21C)[C@H](N)C(=O)O` gave an IC50 of greater than 10000 nM (cell growth or viability, CCK-8; 72 h).
For `O=C1CCC(N2C(=O)c3ccc(N4CCC(C(=O)N5CCC(CCN6CCC(CNC(=O)c7cccc(-c8noc(C(F)(F)F)n8)c7)(c7nc(-c8ccccc8)cs7)CC6)CC5)CC4)cc3C2=O)C(=O)N1` (stereo not drawn), the IC50 was 1510 nM (cell growth or viability, CCK-8; 7 days).

For quick reference, copied from above:
The GI50 of `CCN(C(=O)c1cc(F)ccc1Oc1nncnc1N1CCC2(C1)CN([C@H](CCCN(C)CCOC)C(C)C)C2)C(C)C` is reported as greater than 10000 nM (cell growth or viability; 7 days).
